Results of several laboratories.
Every numbered part comes from another study and shows a few of its results, in no order. Substitutions count along the parent as printed.

Set 1 — method: protein-binding microarray; form: double-stranded DNA, one strand shown; sample: in vitro; concentration: 250 nM; setting: 60-bp whole probe; together with: salmon DNA 0.4 mg/ml; relative to: random background probes; reading: higher = stronger binding; constant ends, left off below: GCCTAGCAC … GTCTTGATTCGCTTGACGCTGCTG
Target: Interferon regulatory factor 7, full length, phosphomimetic (IRF7, Homo sapiens, UniProt Q92985, residues 1-503, S101K/S471D/S472D/S475D/S476D/S477D/S483D/S484D/S487D)
Chain of UniProt Q92985 (whole entry, unmodified, looked up): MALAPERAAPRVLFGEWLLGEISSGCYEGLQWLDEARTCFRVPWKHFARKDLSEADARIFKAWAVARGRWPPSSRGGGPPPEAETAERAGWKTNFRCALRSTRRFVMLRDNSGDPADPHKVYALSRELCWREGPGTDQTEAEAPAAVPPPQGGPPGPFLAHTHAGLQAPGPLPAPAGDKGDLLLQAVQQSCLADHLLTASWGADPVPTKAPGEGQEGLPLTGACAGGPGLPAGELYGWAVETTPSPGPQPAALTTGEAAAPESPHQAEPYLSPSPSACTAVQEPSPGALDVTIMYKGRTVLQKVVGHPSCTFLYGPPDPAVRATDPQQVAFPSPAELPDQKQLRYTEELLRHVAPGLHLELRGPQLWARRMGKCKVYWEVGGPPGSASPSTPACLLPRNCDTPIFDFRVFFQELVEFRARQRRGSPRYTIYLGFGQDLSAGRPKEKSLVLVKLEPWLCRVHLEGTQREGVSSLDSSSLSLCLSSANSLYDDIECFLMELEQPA
Strand	log fluorescence [z-score]
GACGCTTTCGACACTGGGGACGTGCTA	0.492
ATGTATACACACTATAGTGAAGTGCTA	0.358
GACGGTATCGGTATCCGGACGTGCTAG	1.95
TGGGATTTTTAGTTAGAAAAGTGCTAG	-0.441
TGTTTTTTGGTTTCTGGTTTGTGCTAG	5.61

Set 2 — method: RNA Bind-n-Seq; form: RNA; sample: in vitro; concentration: 200 nM; setting: whole 134-nt RNA, ends assumed; together with: 150 mM LiCl; relative to: input library; reading: higher = stronger binding; library: 7-deaza-guanosine replaces G
Target: Fragile X messenger ribonucleoprotein 1, C-terminal low-complexity region (Fmr1, Mus musculus, UniProt P35922)
Constant ends, left off below: GGGAGUUCUACAGUCCGACGAUC … UGGAAUUCUCGGGUGUCAAGG
Strand	log2 enrichment
AGUCCUGUGCUACACAUCGUAUGUACCGAAUCGGGGAAAAGGGAAAAGGGAAAAGGGGAAAGUAUUAUGUUACGCCGUUCGGAUCUGCAC	0.116
UUUGUCCCUGCUCAGGAUGAGACUUCUGUGAGCAGCGAGGAUUUUGAUAUGAGCGACUCCACAUGGAUGUCAGCUGACCCGCACCUGGCC	-1.9
ACCAUGCAGGUGGGCAUCUUUGGGAAGUUGGGCAAGGGGGGGAUAGGGAGGGGGGUAACACUUUGGGAACAGGUGGUCCCAGGUCGUUUC	1.59
UUGUUUAUUCUGUGUCUUUUGCCUCCUUUCCUACAGAUGUCCGGCAGGAUAAUGCUGCUGGCAGAGCUGGCUCCAGUAGCCUUACACAGG	0.992
CUCAAGUCCUGUGCUACACAUCGUAUGUACCGAAUCGGGUGGGUUUGGGAGGGAAAGUAUUAUGUUACGCCGUUCGGAUCUGCACUUCCA	0.08
AAGUCCUGUGCUACACAUCGUAUGUACCGAAUCGGGGCCCGGCCCGGGGCCCGGGGAAAGUAUUAUGUUACGCCGUUCGGAUCUGCACUU	-2.22

Set 3 — target: CCNE2, cyclin fold, Cln2 fusion (human); method: yeast growth competition, sequencing; sample: yeast; setting: strong parent motif; relative to: not given; reading: higher = stronger binding
Starting sequence: BRCA2 docking peptide (human); PSIKRNLLNEFDR; partner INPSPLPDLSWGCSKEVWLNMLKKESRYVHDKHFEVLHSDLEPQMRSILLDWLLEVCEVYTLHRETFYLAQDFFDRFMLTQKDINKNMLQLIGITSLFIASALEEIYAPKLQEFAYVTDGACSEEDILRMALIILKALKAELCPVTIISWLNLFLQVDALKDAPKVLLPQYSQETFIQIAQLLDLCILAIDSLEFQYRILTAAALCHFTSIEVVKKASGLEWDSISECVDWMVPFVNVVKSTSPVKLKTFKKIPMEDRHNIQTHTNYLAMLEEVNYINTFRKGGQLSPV
Substitution	normalised enrichment score
L8N	1.31
S2P	1.06
P1K	2.72
L7H	-0.221

Other studies, line by line
Substance	target	test	system	setting	scale	measurement	result
PhoQ, residues 284 288 289 292 302 303 SMYGEC	PhoP, residues 12 14 15 18 19 TPWLV (Escherichia coli, UniProt P23836)	Sort-seq, measured: YFP reporter	E. coli	PhoQ-PhoP variant library, together with: 10 µM Mg2+	relative to: high Mg2+ state, higher = stronger signaling	fold induction	2.63
